Measurements from different studies.
Each line is one published result; not all experiments were run side by side. Numbers after ± are the reported error.
Organism: Leishmania infantum

| SMILES | test | system | conditions | EC50 [µM] |
| --- | --- | --- | --- | --- |
| Cc1ncnc2c1c(C(F)(F)F)cn2[C@@H]1O[C@H](CO)[C@@H](O)[C@H]1O | parasite growth, imaging | mouse Macrophage | 5 days, intracellular, amastigote | 3.17 |
| CC1(C)NC(N)=Nc2nc3ccccc3n21 | parasite growth | – | 72 h, promastigote | > 20 |
| CC1(C)CCCc2cc3c(cc21)C(=O)C=CC3=O | parasite growth | – | 72 h, promastigote | 1.2 |
| COc1cc(COC(=O)C2C(C=O)=Cc3cc4c(cc3C2c2cc(OC)c(OC)c(OC)c2)OCO4)cc(OC)c1OC (centres unmarked) | intracellular amastigote growth, iRFP fluorescence | infected mouse splenocyte explants | 48 h | 10.2 ± 0.5 |
| COc1ccc2[nH]c(NC(=N)N)nc2c1 | parasite growth | – | 72 h, promastigote | > 20 |
| COc1cc(C2c3cc4c(cc3C(C(C)C)C3COC(=O)C23)OCO4)cc(OC)c1OC (centres unmarked) | intracellular amastigote growth, iRFP fluorescence | infected mouse splenocyte explants | 48 h | > 100 |
| CC(=O)Oc1cc(C)c(OC(C)=O)c2c1CC=C(CCC=C(C)C)C2 | parasite growth | – | 72 h, promastigote | 10.9 |
| COc1cc([C@@H]2c3cc4c(cc3C=C(C=O)[C@H]2C(=O)N2CCCC2)OCO4)cc(OC)c1OC | parasite growth | – | promastigote | > 100 |
| COC1=CC(=O)c2cc3c(cc2C1=O)CCCC3(C)C | parasite growth | – | 72 h, promastigote | 7.56 |
| CC1(C)NC(N)=Nc2nc3c(Cl)cc(Cl)cc3n21 | parasite growth | – | 72 h, promastigote | > 20 |
| C=CCOC(=O)C1C(C=O)=Cc2cc3c(cc2C1c1cc(OC)c(OC)c(OC)c1)OCO3 (centres unmarked) | intracellular amastigote growth, iRFP fluorescence | infected mouse splenocyte explants | 48 h | 29.8 ± 1.6 |
| Cc1cc2nc3n(c2cc1C)C(C)(C)NC(N)=N3 | parasite growth | – | 72 h, promastigote | > 20 |
| CCNC1=C(Cl)C(=O)c2cc3c(cc2C1=O)CCCC3(C)C | – | intracellular amastigotes, ex vivo mouse splenic explants | 72 h | 66.6 ± 3.3 |
| Cc1ncnc2c1c(C1=CCSCC1)cn2[C@@H]1O[C@H](CO)[C@@H](O)[C@H]1O | parasite growth, imaging | mouse Macrophage | 5 days, intracellular, amastigote | 6.96 |

For quick reference, copied from above:
| SMILES | test | system | conditions | EC50 [µM] |
| --- | --- | --- | --- | --- |
| COc1cc(C2c3cc4c(cc3C(C(C)C)C3COC(=O)C23)OCO4)cc(OC)c1OC (centres unmarked) | intracellular amastigote growth, iRFP fluorescence | infected mouse splenocyte explants | 48 h | > 100 |
| CC(=O)Oc1cc(C)c(OC(C)=O)c2c1CC=C(CCC=C(C)C)C2 | parasite growth | – | 72 h, promastigote | 10.9 |
